Earlier results as cited in several papers.
Protocols differ between the studies behind these lines. Numbers after ± are the reported error.

CN(C(=O)Cc1ccc(Cl)c(Cl)c1)[C@@H]1CCCC[C@H]1N1CCCC1  brain to blood ratio (mouse): 8.2
c1ccc2c(c1)ccc[n+]2CCCCCCCCCC[n+]1cccc2ccccc21  half-life (rat, plasma; intramuscular, 5% of LD50): 54.7 ± 6.2 min
CNCC(=O)N[C@@H](Cc1c[nH]c2ccccc12)C(=O)N[C@H](C(=O)N[C@@H](CC(C)C)C(=O)N[C@@H](CC(N)=O)C(=O)N[C@@H](CO)C(=O)N[C@@H](C)C(=O)NCC(=O)N[C@@H](Cc1ccc(O)cc1)C(=O)N[C@@H](CC(C)C)C(=O)N[C@@H](CC(C)C)C(=O)NCC(=O)N1CCC[C@H]1C(=O)N[C@@H](CCCCN)C(=O)N[C@@H](CCCCN)C(=O)N[C@@H](CCCCN)C(=O)N[C@@H](CCCCN)C(N)=O)[C@@H](C)O  HPLC retention time (diphenyl column HPLC; water/acetonitrile gradient with TFA): 15.1 ± 0.42 min
C=CC[N+](C)(C)c1ccc(CCC(=O)CCc2ccc([N+](C)(C)CC=C)cc2)cc1  IC50 (BJ fibroblasts; cytotoxicity, MTT): > 3000 µM
NCCNCCSc1ccccc1  long-term stability (urine; 1 µg/mL, 30 days, -20 °C): 94.1 ± 1.77 % remaining
COc1cccc2c(N3CCC(CCP(=O)(O)O)CC3)ncnc12  serum concentration (mouse, serum; subcutaneous, 300 mg/kg single dose, 24 h): ~0.1 µM
CC[C@H](C)[C@H](NC(=O)[C@H](CCCNC(=N)N)NC(=O)[C@H](CC(C)C)NC(=O)[C@@H](N)Cc1ccccc1)C(=O)N[C@@H](CCCNC(=N)N)C(=O)N1CCC[C@H]1C(=O)N[C@@H](CCCCN)C(=O)O  half-life (rat plasma): < 60 min
NC1=NC2(CCCCC2)N(c2ccc(OCc3cn(CCCCOc4ccc5ccc(=O)oc5c4)nn3)cc2)C(N)=N1  selectivity index (red blood cells; hemolysis; baseline: hemolytic LC50 over MIC50): > 4000
CCN(CC)Cc1cc(N)ccc1O  pKa: ~9
O=c1c2ccc(Oc3ccc(OC(F)(F)F)cc3)cc2[nH]c2cc(Cl)cc(F)c12  Cmax (plasma; oral, 80 mg/kg, single dose): 0.0172 µg/mL
c1ccc2c[n+](CCCCCCCC[n+]3ccc4ccccc4c3)ccc2c1  LD50 (rat; intramuscular, 24 h): 56.2 mg/kg
Cc1cc(C)c2c(N)c(C(=O)NCc3ccc4c(c3)OCO4)sc2n1  remaining parent compound (human liver microsomes; 90 min): < 10%

Excerpt of the above:
CNCC(=O)N[C@@H](Cc1c[nH]c2ccccc12)C(=O)N[C@H](C(=O)N[C@@H](CC(C)C)C(=O)N[C@@H](CC(N)=O)C(=O)N[C@@H](CO)C(=O)N[C@@H](C)C(=O)NCC(=O)N[C@@H](Cc1ccc(O)cc1)C(=O)N[C@@H](CC(C)C)C(=O)N[C@@H](CC(C)C)C(=O)NCC(=O)N1CCC[C@H]1C(=O)N[C@@H](CCCCN)C(=O)N[C@@H](CCCCN)C(=O)N[C@@H](CCCCN)C(=O)N[C@@H](CCCCN)C(N)=O)[C@@H](C)O  HPLC retention time (diphenyl column HPLC; water/acetonitrile gradient with TFA): 15.1 ± 0.42 min
